# Results pooled from the literature.
# Each line is one published result; not all experiments were run side by side. pIC50: −log10 of the molar value.
# Organism: Leishmania donovani
Structure (SMILES),test,test system,setting,scale,quantity,value
CC/C(=C\c1ccc(OCC(=O)NC(C(=O)N2CCOCC2)c2ccccc2)cc1)[N+](=O)[O-] (centres unmarked),,"macrophages, intracellular amastigotes","3.125 µM, 72 h",,inhibition,36.7%
CCCOC(=O)/C=C/c1ccc(O)c(O)c1,,MHOM/ET/67/L-82,"concentration not given, axenic amastigotes, active if IC50 < 10 µM",,antileishmanial activity,active
CCOC(=O)C(CC)NC(=O)CN1C(=O)S/C(=C\c2ccc([N+](=O)[O-])cc2)C1=O (centres unmarked),"parasite growth, resazurin",,promastigote,,pIC50,< 4.00
CC(C)(C)OC(=O)/C=C/c1ccc(O)c(O)c1,,MHOM/ET/67/L-82,"concentration not given, axenic amastigotes, active if IC50 < 10 µM",,antileishmanial activity,active
CC(=O)Oc1ccc(Cn2ccc(=O)[nH]c2=O)cc1C1OC(c2ccccc2)=NN1C(C)=O (centres unmarked),"parasite growth, SYBR Green",RAW264.7,"intracellular, amastigote",,pIC50,< 4.00
CC(C)(C)OC(=O)/C=C/c1ccc(O)c([N+](=O)[O-])c1,,MHOM/ET/67/L-82,,reference: IC50 L6 cells over IC50 amastigotes,selectivity index,96
O=S(=O)(CCC(F)(F)F)N[C@H]1CC[C@H](Nc2ncc3c(-c4ccccn4)n[nH]c3n2)CC1,,"LV9, BALB/c mouse, visceral leishmaniasis","oral, 50 mg/kg twice daily, 5 days",,parasite reduction,> 70%
CC(C)OC(=O)/C=C/c1ccc(O)c(O)c1,,MHOM/ET/67/L-82,"concentration not given, axenic amastigotes, active if IC50 < 10 µM",,antileishmanial activity,active
CCOC(=O)C(NC(=O)CN1C(=O)/C(=C/c2ccc3c(c2)OCO3)SC1=S)C(C)C (centres unmarked),parasite growth,,"72 h, intracellular, amastigote",,pIC50,6.51
CCCCCC1CC2CCCC3CC(C)N=C(N1)N32 (centres unmarked),"parasite growth, Alamar Blue",promastigotes,,,IC90,20.9 µM
CCCCOC(=O)/C=C/c1ccc(O)c(O)c1,,MHOM/ET/67/L-82,,reference: IC50 L6 cells over IC50 amastigotes,selectivity index,20
CCC(NC(=O)CN1C(=O)N/C(=C\c2ccc(C)cc2)C1=O)C(=O)OC (centres unmarked),parasite growth,,"72 h, intracellular, amastigote",,pIC50,5.11
CC/C(=C\c1ccc(OCC(=O)NC(C(=O)N2CCSCC2)c2ccccc2)cc1)[N+](=O)[O-] (centres unmarked),,"THP-1, intracellular amastigotes in macrophages",,reference: CC50 THP-1 over IC50 amastigotes,selectivity ratio,4.65
CCOC(=O)C(CC)NC(=O)CN1C(=O)S/C(=C\c2ccc(C)cc2)C1=O (centres unmarked),parasite growth,,"72 h, intracellular, amastigote",,pIC50,6.24
Cc1cc2[nH]c(C(=O)Nc3ccccc3C)c(CN3CCOCC3)c2s1,parasite growth,THP-1,"80 µM, intracellular, amastigote",,inhibition,39%
CCOC(=O)CNC(=O)CN1C(=O)S/C(=C\c2ccc(C)cc2)C1=O,parasite growth,,"72 h, intracellular, amastigote",,pIC50,< 5.00
CCCCCCCCCCCCCCCCC1CC(=O)NCCCN(C)CCCCN(C)CCCN1C (centres unmarked),Alamar blue,,"72 h, 26 °C, promastigotes",,IC90,6.3 µg/mL

# Excerpt of the above:
Structure (SMILES),test,test system,setting,scale,quantity,value
CCCOC(=O)/C=C/c1ccc(O)c(O)c1,,MHOM/ET/67/L-82,"concentration not given, axenic amastigotes, active if IC50 < 10 µM",,antileishmanial activity,active
CCOC(=O)C(CC)NC(=O)CN1C(=O)S/C(=C\c2ccc([N+](=O)[O-])cc2)C1=O (centres unmarked),"parasite growth, resazurin",,promastigote,,pIC50,< 4.00
